Results gathered from unrelated publications.
A part holds a random share of what one study measured. Substitutions count along the parent as printed.

Study 1
Target: ABI1, truncated, D143A, DHFR fusion (Arabidopsis thaliana)
Method: DHFR PCA, deep sequencing
Sample: yeast
Notes: methotrexate growth selection, single substitutions
Added: (+)-ABA 200 µM
Relative to: wild-type fitted maximum
Reading: higher = stronger binding
Starting sequence: PYL1, truncated, DHFR fusion (Arabidopsis thaliana); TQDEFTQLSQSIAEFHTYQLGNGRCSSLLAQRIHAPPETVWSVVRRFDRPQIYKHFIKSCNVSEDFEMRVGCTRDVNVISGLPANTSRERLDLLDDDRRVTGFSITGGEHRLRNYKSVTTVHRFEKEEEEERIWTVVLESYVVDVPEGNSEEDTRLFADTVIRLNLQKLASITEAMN
Variant	relative binding score [%]
R113V	98.8
S63T	101
E89D	53.8
Q7M	104
T86G	101
C60L	69.3
H34C	101
E152P	73.3
V43G	6.62
A35K	40.4
R113T	105
C72R	86.6
E130L	103
L138C	76
D97N	107
H122Y	27.4
A30M	102
S11M	92.9
P146I	25.6
I105N	52.4
I162R	-2.13
Q7Y	97.5
R46I	60.1
K126I	98.5
F103M	76.1

Study 2
Target: RNA binding protein fox-1 homolog 2, RRM domain, GST-SBP tag (RBFOX2, Homo sapiens, UniProt O43251-10, residues 100-194)
Method: RNA Bind-n-Seq
Form: RNA
Sample: in vitro
Tested at: 365 nM
Notes: natural RNA segment, single round, ends assumed
Relative to: no-protein control
Reading: higher = stronger binding
Constant ends, left off below: GGGAGUUCUACAGUCCGACGAUC … UGGAAUUCUCGGGUGCCAA
Construct (chain): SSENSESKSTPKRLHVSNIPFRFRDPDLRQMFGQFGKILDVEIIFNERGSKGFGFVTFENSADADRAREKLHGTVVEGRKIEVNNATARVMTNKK
Sequence	RBNS enrichment (R)
AAAGGACCAACCUGCCUUACGUAUCAGUUUAGUUCCUGAAAUCAGUGGAACUAUUCAAGGGACGGAACUCCUCUGGAGACUCUGUUUAAACAUACUUUUCAGUUCCCGAG	0.546
GUACAUGAGUUAAGCAUACUUGUUGCAUUGUCUCUGCAGAUUCUAUUUUUGUUUACAAUAUUAAAAUGUAUGUUAGCAAAUGGGUGGAUUUUCAAAUAAAAUGCAGCUUC	0.407
AAAAGACAUAAAUGAAUUAGGCACCCAGAAGAAGUUGCAUGUUUGGAAAUGCAAUAUCUUGGGGAGACGUCAACUUCUGAAGUGACUUUGAAGGCAGGGCAGCUACCCAG	1.01
ACGUUUCCUGUAGUAUGUUUCUUCAUCUCAUCGCCAAGGUAGGCUUGUGUUUUUCAGUGUGUGCCUCCCCGAGCCUCAGCCCCAAGCUGAUUUCUUAUCUGGAAAUGGUA	0.469
UAAGAGUUCCCUAGGGAGUUACCAGGGCUUUUCGUUUUGUGUAGCUUUUGCAGCAUGGAUCAAACAUUGGCUUACUGUGCUAAUGUGUGAAGAGAAAAAAUUCUCUAAAG	0.887
AGGUUUCCUGGAGGCAAAGUUUAUGAAAUCCUUUCUGUAACUCCAUAAAGAUGUCUGCAGCUAUUUCCUACCCAGAUGUUCCUGAUGUGAUAAGCAGGGGACUUUUUUUU	0.329
AGUCUCCUGCUAGUCUGACUCCUGAAGCAUCAGACCCUGUCAUACUGUAUUGACUGUGUAUGUGCCUUUCACCUUGAGCAUGCUUCAGGAAUUUUUUUUUUUCUUAAACC	0.891
CUCCAGCUAGCCUACACUGAUCCUGCCUAAGCAGGGUCCUGAACGCCGGAGACAGGGUCUGCUGGAGCUGGGAGACGGCGCUGCAGAUAGAUGGCUACAGGAGCUUUUGG	0.417
AAAUAAACUGCCAGCAAACUUUCUAACUUGUAUUUUAACUGUUAAAGAAGAGAUUAAAAACUUCGGCUUUGGACAUGUCCACAUUAUGGACUGUCAUCUUAUUUUUAAAA	0.927
UCAGCCCUCGCAACUCGCCCCUCCGGGCCCCCCCACCAGGCACAACCAUCCCCGGGGCCAGCCGGGACGUUGUCGGUUUAUUUCUGUAAAUAGAAACCAGCAAGUGUAUA	0.534
AUGUUCUUGGAUAUGUAAGUGCCAAUACCAGUGUGAAGUAUUGAUCCCGGGCAGCAAAAUACAGCCUAAGGUUUGUAAACAUCAAUUCUAUCUCAGUUCAUCAGAGGGCC	0.613
UGACUUAGGAGUGAUGUGGCUAACUGAGGCCUGAGUGAGUGUGUAGAUUGUCCUUGGGUGAGUGAGAAAAAACACUUUGCAUUGCUUUCAGGUUGGUGGAAAAUGUCAGU	1.63

Study 3
Target: Histone acetyltransferase KAT6A, winged helix 1, GST fusion (KAT6A, Homo sapiens, UniProt Q92794, residues 1-85)
Method: protein binding microarray
Form: double-stranded DNA, one strand shown
Sample: in vitro
Tested at: not given
Notes: 8-mer, flanks averaged, mean of 2 arrays, mostly near background
Relative to: not given
Reading: higher = stronger binding
Target sequence (chain): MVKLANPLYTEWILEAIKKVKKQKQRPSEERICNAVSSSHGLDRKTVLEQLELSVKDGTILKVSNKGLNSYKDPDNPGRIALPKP
Sequence	E-score
ACCTCATC	-0.259
AATCCCAT	-0.161
ATTCAGTG	-0.112
AACTCTGC	-0.192
AATGTGGC	0.0365
AGCTCTAT	-0.0431
GGAGCAAA	-0.0769
CGAAACGA	-0.155
ATAGCAAG	-0.0429
GCGGCCTA	0.224
GACGCATA	0.165
AAACGAGT	-0.0829
AATCGTAA	-0.102
CCTCGGAC	0.0995
ACTGCTGA	-0.0707
ACTTTGAA	-0.277
ACGACAGT	-0.161
ATACTTCC	-0.0603
AGATCGAG	-0.202
TTATGCAA	-0.221

Study 4
Organism: Saccharomyces cerevisiae
Effect on: binding
Method: competitive growth deep sequencing
Form: peptide
Strain: cyclin D2-Cln2 fusion strain
Tested at: concentration not given
Notes: peptide tiling library
Reading: direction not given
Sequence	growth enrichment score
DSDSDSEGGAAGGEAD	2.09
PLRKAKRARLCSSSSS	1.53
DTERAHSTLDEDLERW	1.01
PARRRLRLSVDEVSSP	-0.767
ESSQLTVQAEFDMSAI	0.604
ALTMEALEDPSPELME	0.367
NARRSLNFGGSTGT	-0.653
IVLICAKRSLCAAFSV	-2.39
GQLVIPLDELTLDTSF	1.93
KPITLDTTDFQESFVT	0.78
AIRKMREDRWAVIAKM	-0.71
PAKRRLELGE	1.27

Study 5
Target: Interferon regulatory factor 3, full length, phosphomimetic (IRF3, Homo sapiens, UniProt Q14653, residues 1-427, S386D/S396D/S398D/S402D/T404D/S405D)
Chain of UniProt Q14653 (whole entry, unmodified, looked up): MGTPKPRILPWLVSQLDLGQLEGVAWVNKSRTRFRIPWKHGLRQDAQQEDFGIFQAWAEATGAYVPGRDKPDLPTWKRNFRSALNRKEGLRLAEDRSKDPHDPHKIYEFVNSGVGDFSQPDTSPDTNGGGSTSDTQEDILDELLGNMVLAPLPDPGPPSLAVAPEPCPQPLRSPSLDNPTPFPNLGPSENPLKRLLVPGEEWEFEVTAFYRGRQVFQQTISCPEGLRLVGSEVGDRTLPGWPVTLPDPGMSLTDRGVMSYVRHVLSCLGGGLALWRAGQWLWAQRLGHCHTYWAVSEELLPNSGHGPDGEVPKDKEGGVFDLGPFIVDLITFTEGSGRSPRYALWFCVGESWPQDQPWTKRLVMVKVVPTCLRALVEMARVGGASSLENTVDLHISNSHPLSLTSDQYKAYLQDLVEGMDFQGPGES
Method: protein-binding microarray
Form: double-stranded DNA, one strand shown
Sample: in vitro
Tested at: 2540 nM top
Notes: 60-bp whole probe
Added: salmon DNA 0.4 mg/ml
Relative to: random background probes
Reading: higher = stronger binding
Constant ends, left off below: GCCTAGCAC … GTCTTGATTCGCTTGACGCTGCTG
Sequence	fitted relative affinity
TTGTTTTTCATCATTGCCTAGTGCTAG	1.09 z-score
TCATTTACAGGTTCTCTTACTGTGCTA	1.62 z-score
TGAGAACTGGGGTATCGATTAGTGCTA	-0.737 z-score
TCATATATTTTAATCACACTGTGCTAG	0.499 z-score
TCAACTCTTTACATGGGACTGTGCTAG	0.312 z-score
TTAGAACTAAGTCTCGATTAGTGCTAG	-0.139 z-score
TCAAAATTTTTTTTCTAACTGTGCTAG	0.0603 z-score
TTAGGACTGCACACTGGGTTAGTGCTA	-0.786 z-score
TCAATCTTCACTCTTAATTAGTGCTAG	0.943 z-score
TTAGGTCTCGGACTGTGTTAGTGCTAG	-0.298 z-score
GACGATTTCGGGTATAGAGACGTGCTA	1.78 z-score
TTAGGACTGGGTATCGGTTGGTGCTAG	-0.123 z-score
GACGGTAGCGGGTATCGGGACGTGCTA	-0.317 z-score
GACGGACTGGACTTACGGGACGTGCTA	-0.583 z-score
TTAGATATCAGTCTCAATTAGTGCTAG	1.26 z-score
GACGGTTCCCTTTTCTTGACGTGCTAG	5.93 z-score
GGCGGTTTCGACTATCGGGACGTGCTA	2.82 z-score
TTAGAACTTAGACTGGATTAGTGCTAG	-0.612 z-score

A few entries again (study 3):
Sequence	E-score
ACCTCATC	-0.259
AATCCCAT	-0.161
ATTCAGTG	-0.112
AACTCTGC	-0.192
AATGTGGC	0.0365
AGCTCTAT	-0.0431
GGAGCAAA	-0.0769
CGAAACGA	-0.155
ATAGCAAG	-0.0429
GCGGCCTA	0.224
GACGCATA	0.165
AAACGAGT	-0.0829
AATCGTAA	-0.102
CCTCGGAC	0.0995
